Published values of several laboratories.
Numbered parts are unrelated; each lists some results of a single study.

Set 1
Target: Sal-like protein 4, full length isoform A (SALL4, Homo sapiens, UniProt Q9UJQ4, residues 1-1053)
UniProt Q9UJQ4, sequence (whole entry, looked up): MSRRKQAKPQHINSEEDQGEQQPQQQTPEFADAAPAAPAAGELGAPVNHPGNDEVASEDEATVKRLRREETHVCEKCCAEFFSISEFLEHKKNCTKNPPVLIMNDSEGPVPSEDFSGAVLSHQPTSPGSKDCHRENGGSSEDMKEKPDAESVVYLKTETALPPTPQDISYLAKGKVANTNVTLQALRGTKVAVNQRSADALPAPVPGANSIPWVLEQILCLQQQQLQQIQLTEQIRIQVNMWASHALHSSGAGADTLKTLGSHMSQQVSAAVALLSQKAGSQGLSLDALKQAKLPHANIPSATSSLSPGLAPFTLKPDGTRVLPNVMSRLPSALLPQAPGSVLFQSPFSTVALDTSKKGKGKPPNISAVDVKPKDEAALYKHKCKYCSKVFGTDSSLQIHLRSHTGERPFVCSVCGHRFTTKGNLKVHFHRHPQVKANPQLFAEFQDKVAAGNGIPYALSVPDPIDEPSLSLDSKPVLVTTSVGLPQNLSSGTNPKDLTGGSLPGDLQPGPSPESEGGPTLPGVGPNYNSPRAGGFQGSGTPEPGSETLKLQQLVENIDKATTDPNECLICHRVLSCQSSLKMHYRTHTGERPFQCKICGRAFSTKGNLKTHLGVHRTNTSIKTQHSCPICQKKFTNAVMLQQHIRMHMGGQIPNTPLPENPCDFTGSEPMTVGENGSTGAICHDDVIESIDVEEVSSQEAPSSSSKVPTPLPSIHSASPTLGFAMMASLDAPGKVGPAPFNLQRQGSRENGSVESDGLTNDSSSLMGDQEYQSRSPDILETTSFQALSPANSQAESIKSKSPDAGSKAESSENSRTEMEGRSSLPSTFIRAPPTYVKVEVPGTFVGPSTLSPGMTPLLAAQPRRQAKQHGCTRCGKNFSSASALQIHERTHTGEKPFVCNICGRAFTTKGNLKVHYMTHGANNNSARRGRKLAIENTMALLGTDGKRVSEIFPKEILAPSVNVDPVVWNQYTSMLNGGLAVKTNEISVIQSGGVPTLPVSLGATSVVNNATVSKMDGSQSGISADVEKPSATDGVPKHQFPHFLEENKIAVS
Technique: universal PBM
Molecule type: double-stranded DNA, one strand shown
Sample: in vitro
Tested at: 600 nM
Setting: 8-mer, flanks averaged, mean of replicates
Reading: higher = stronger binding
Quantity: E-score
ATTCTGCG: -0.0362
CGGCCATC: -0.29
ATGTCTAA: 0.281
TTCTCAAA: 0.258

Set 2
Target: Prothrombin, mature alpha-thrombin (F2, Homo sapiens, UniProt P00734)
Technique: aptamer microarray, sandwich
Molecule type: DNA with 2'F-ANA
Sample: in vitro
Tested at: 200 nM
Setting: whole 15-mer aptamer, many near background
Added: Cy3 exosite-II aptamer, 400 nM
Reading: higher = stronger binding
Quantity: mean fluorescence intensity
GGTTGGTGTGGTTGG (2'F-ANA at 4 8 9 11 14): 81.2 a.u.
GGTTGGTGTGGTTGG (2'F-ANA at 5 8 10 12): 48.1 a.u.
GGTTGGTGTGGTTGG (2'F-ANA at 2 3 7 9 10 11 13): 363 a.u.
GGTTGGTGTGGTTGG (2'F-ANA at 1 2 3 5 6 9 10 14 15): 45.8 a.u.

Set 3
Target: RNA binding protein fox-1 homolog 2, RRM domain, GST-SBP tag (RBFOX2, Homo sapiens, UniProt O43251-10, residues 100-194)
Technique: RNA Bind-n-Seq
Molecule type: RNA
Sample: in vitro
Tested at: 365 nM
Setting: natural RNA segment, single round, ends assumed
Baseline: no-protein control
Reading: higher = stronger binding
Quantity: RBNS enrichment (R)
Construct (chain): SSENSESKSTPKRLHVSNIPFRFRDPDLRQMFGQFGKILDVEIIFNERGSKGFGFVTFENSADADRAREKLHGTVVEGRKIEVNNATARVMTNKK
GGGAGUUCUACAGUCCGACGAUCAAUCCUGAUUUCCAGCUCAUGGAGCCAGCGUUUGAACCUUGAACAAAUAAAUUUCAUUUAUGAUUUUCUCAUCAACAUUUUCUUUGCUCUGUUUGUAGCUGAAUGUUACAUGGAAUUCUCGGGUGCCAA: 0.435
GGGAGUUCUACAGUCCGACGAUCCUGCCAUCAUAAGUAUGGAGUAAGCUAAAGGAUGACCGUUAUGCCCGUGUAGACAUAGUGUACUCAGCAGAUGUAGAAUGUGAGCUCAUCAGCCUUGGCCUGGCUGAAACUGGAAUUCUCGGGUGCCAA: 1.38
GGGAGUUCUACAGUCCGACGAUCUGCUCUUGCCGCCAGCAUUGCACCAGCAGUCCAGAAUUCCUGCCUGACAACCCGUGUUUCCUUUAUUAAAAGUGAUUAGUACAACUGCUAGUUAUUUUCAACAAAUAAAGUGGAAUUCUCGGGUGCCAA: 0.225
GGGAGUUCUACAGUCCGACGAUCUGAGUGAAGGCAGUCAACAUCCUAGUAUGAAUCAGACCUAGCAGAAAUGUAAAUUAUUUCAAGUACUUCAGGGUUUAGUUUUCUUAGUGACACCCUGGACCCUGGAUGCUUGGAAUUCUCGGGUGCCAA: 1.07

Other studies, line by line
PhoQ, residues 284 288 289 292 302 303 ALVSVA  fold induction (PhoP, residues 12 14 15 18 19 LYHSL (Escherichia coli, UniProt P23836); Sort-seq, item: YFP reporter; E. coli; PhoQ-PhoP variant library, added: 10 µM Mg2+; baseline: high Mg2+ state, higher = stronger signaling): 4.87

A few entries again (set 3):
GGGAGUUCUACAGUCCGACGAUCUGCUCUUGCCGCCAGCAUUGCACCAGCAGUCCAGAAUUCCUGCCUGACAACCCGUGUUUCCUUUAUUAAAAGUGAUUAGUACAACUGCUAGUUAUUUUCAACAAAUAAAGUGGAAUUCUCGGGUGCCAA: 0.225
GGGAGUUCUACAGUCCGACGAUCUGAGUGAAGGCAGUCAACAUCCUAGUAUGAAUCAGACCUAGCAGAAAUGUAAAUUAUUUCAAGUACUUCAGGGUUUAGUUUUCUUAGUGACACCCUGGACCCUGGAUGCUUGGAAUUCUCGGGUGCCAA: 1.07
